# Assay results from different studies.
# Lines come from different studies, so protocols differ. ± marks the error that the study gave.
SMILES,host,matrix,route,dose,time,notes,concentration
O=C(N[C@H](Cc1c[nH]c2ccccc12)C(=O)Nc1ccncc1)c1ccc(N2CCN(c3ccc(F)cc3F)CC2)cc1F,"Swiss Webster mouse, female",plasma,oral,50 mg/kg,2 h,20% HPβCD vehicle,0.01 µM
CC(C)(C)c1cc(NC(=O)Nc2ccc(Oc3ccnc4[nH]c(=O)cnc34)cc2F)n(-c2ccccc2)n1,nude mouse (female),plasma,oral,20 mg/kg,1 h after last dose,end of therapy,53.1 µM
COc1ccc2c3c([nH]c2c1)[C@H](CC(C)C)N1C(=O)[C@H](CC(=O)NC(C)C)NC(=O)[C@@H]1C3,"wild-type mouse, male",serum,oral,100 mg/kg,1 h,,33.1 µM
CN(C)C(=O)c1cc2cnc(Nc3ccc(-c4ccc5c(=O)cc(N6CCOCC6)oc5c4)cc3)nc2n1C1CCCC1,BALB/c mouse,kidney,oral,20 mg/kg,24 h,,29.5 ± 7.5 ng/g
CN1CCCC1CCNS(=O)(=O)c1ccc2c(c1)CN(CC1CCCCC1)CC2 (stereo not drawn),THY-Tau22 mouse,plasma,oral in diet,0.02% in diet,6 months,sampled at 8 p.m.,56.2 ng/mL
O=C(N[C@H](Cc1c[nH]c2ccccc12)C(=O)Nc1ccncc1)c1ccc(-c2ccc(F)c(Cl)c2)cc1F,"Swiss Webster mouse, female",fat,oral,50 mg/kg,2 h,20% HPβCD vehicle,0.17 µM
O=S(=O)(c1ccc(-c2ccc3nccc(Nc4ccncn4)c3c2)cc1)N1CCOCC1,female BALB/c mouse,plasma,intraperitoneal,10 mg/kg,0.25 h,,3560 ng/mL
CSc1cc(Oc2ccnc3[nH]c(=O)cnc23)ccc1NC(=O)Nc1cc(C(C)(C)C)nn1-c1ccccc1,NSG mouse (female),tumor,oral,20 mg/kg,1 h after last dose,end of therapy,10 µM
Cn1cc([C@H]2C[C@H]3CSC(N)=N[C@@]3(c3ccc(F)cc3F)CO2)cn1,mouse 129/SVE male,brain,subcutaneous,3 mg/kg,3 h,,0.213 µM

# Repeated from above:
SMILES,host,matrix,route,dose,time,notes,concentration
O=C(N[C@H](Cc1c[nH]c2ccccc12)C(=O)Nc1ccncc1)c1ccc(-c2ccc(F)c(Cl)c2)cc1F,"Swiss Webster mouse, female",fat,oral,50 mg/kg,2 h,20% HPβCD vehicle,0.17 µM
